Published values from different studies.
Protocols differ between the studies behind these lines. ± marks the error that the study gave.

SMILES	test	test system	conditions	scale	endpoint	result
CC(C)[C@H](NC(=O)CNC(=O)[C@H](CCC(N)=O)NC(=O)[C@H](C)N)C(=O)O	–	human	20 mg/kg, 3 days, thrice daily dosing	–	discontinuation due to adverse events	0%
CC[C@@H](C)[C@H](NC(=O)[C@H](C)NC(=O)[C@H](CCCCN)NC(=O)[C@H](CC(C)C)NC(=O)[C@H](C)NC(=O)[C@@H](NC(=O)[C@H](Cc1c[nH]cn1)NC(=O)[C@H](CC(C)C)NC(=O)[C@@H](NC(=O)[C@@H](NC(=O)[C@H](CCCCN)NC(=O)[C@H](CCCCN)NC(=O)[C@H](C)NC(=O)[C@H](CO)NC(=O)[C@H](CCCCN)NC(=O)[C@H](Cc1ccccc1)NC(=O)[C@@H](NC(=O)[C@H](CCCCN)NC(=O)[C@H](CC(C)C)NC(=O)[C@H](Cc1ccccc1)NC(=O)[C@H](CO)NC(=O)[C@H](CCCCN)NC(=O)[C@H](Cc1c[nH]c2ccccc12)NC(=O)[C@H](CCCCN)NC(C)=O)[C@@H](C)O)[C@@H](C)O)C(C)C)[C@@H](C)O)C(=O)N[C@@H](CO)C(=O)N[C@@H](CO)C(N)=O	circular dichroism at 222 nm	buffer with 50% TFE	75 µM, 30 °C	–	mean residue ellipticity	-24600 deg cm² dmol⁻¹
CCCC[C@@H]1NC(=O)[C@H](Cc2ccc(O)cc2)NC(=O)[C@@H]2CCCN2C(=O)[C@H](CC(=O)O)NC(=O)[C@H](C)NC(=O)[C@H](Cc2ccccc2)NC(=O)[C@@H]2CSCCC(=O)N3CN(CN(C3)C(=O)CCSC[C@@H](C(=O)N[C@@H](C)C(N)=O)NC1=O)C(=O)CCSC[C@H](NC(C)=O)C(=O)N[C@@H](CC(C)(C)C)C(=O)N1CCC[C@H]1C(=O)N[C@@H](CCC(=O)O)C(=O)N[C@H](CCCCNC(=O)CCc1cn(CCOCCOCCOCCN(CCOCCOCCOCCC(=O)N[C@H]3CSCCC(=O)N4CN5CN(C4)C(=O)CCSC[C@H](NC(=O)[C@@H](CC(=O)O)NC(=O)[C@H](Cc4cccc6ccccc46)NC(=O)[C@@H]4CCCN4C3=O)C(=O)N[C@@H](CCSC)C(=O)N[C@@H](CCCCNC(=N)N)C(=O)N[C@@H](CC(=O)O)C(=O)N[C@@H](Cc3c[nH]c4ccccc34)C(=O)N[C@@H](CO)C(=O)N[C@@H]([C@@H](C)O)C(=O)N3CCC[C@H]3C(=O)N3C[C@H](O)C[C@H]3C(=O)N[C@@H](Cc3c[nH]c4ccccc34)C(=O)N[C@H](C(N)=O)CSCCC5=O)CCOCCOCCOCCn3cc(CCC(=O)NCCCC[C@H]4NC(=O)[C@H](CCC(=O)O)NC(=O)[C@@H]5CCCN5C(=O)[C@H](CC(C)(C)C)NC(=O)[C@@H](NC(C)=O)CSCCC(=O)N5CN6CN(C5)C(=O)CCSC[C@H](NC(=O)[C@H](Cc5ccc(O)cc5)NC(=O)[C@@H]5CCCN5C4=O)C(=O)N[C@@H](Cc4ccccc4)C(=O)N[C@@H](C)C(=O)N[C@@H](CC(=O)O)C(=O)N4CCC[C@H]4C(=O)N[C@@H](Cc4ccc(O)cc4)C(=O)N[C@@H](CCCC)C(=O)N[C@H](C(=O)N[C@@H](C)C(N)=O)CSCCC6=O)nn3)nn1)C(=O)N1CCC[C@H]1C(=O)N[C@@H](Cc1ccc(O)cc1)C(=O)N2	–	cynomolgus monkey, plasma	intravenous, 1 mg/kg, infusion	–	half-life	5.3 h
CC[C@@H](C)[C@@H](NC(=O)[C@@H](C)NC(=O)[C@@H](CCCCN)NC(=O)[C@@H](CC(C)C)NC(=O)[C@@H](C)NC(=O)[C@H](NC(=O)[C@@H](Cc1c[nH]cn1)NC(=O)[C@@H](CC(C)C)NC(=O)[C@H](NC(=O)[C@H](NC(=O)[C@@H](CCCCN)NC(=O)[C@@H](CCCCN)NC(=O)[C@@H](C)NC(=O)[C@@H](CO)NC(=O)[C@@H](CCCCN)NC(=O)[C@@H](Cc1ccccc1)NC(=O)[C@H](NC(=O)[C@@H](CCCCN)NC(=O)[C@@H](CC(C)C)NC(=O)[C@@H](Cc1ccccc1)NC(=O)[C@@H](CO)NC(=O)[C@@H](CCCCN)NC(=O)[C@@H](Cc1c[nH]c2ccccc12)NC(=O)[C@@H](CCCCN)NC(C)=O)[C@H](C)O)[C@H](C)O)C(C)C)[C@H](C)O)C(=O)N[C@H](CO)C(=O)N[C@H](CO)C(N)=O	circular dichroism	benign aqueous buffer	pH 7.0, 5 °C, at 222 nm	negative is more helical	mean residue molar ellipticity	1150 deg cm2/dmol
O.[C-]#[O+].[C-]#[O+].[C-]#[O+].[Re+].c1ccc(-c2ccccn2)nc1	RP-HPLC C18 column, refers to: free diimine ligand	MeCN:water 40:60, 0.1% TFA	isocratic elution	–	capacity factor	0.42
CC(C)C[C@@H](N)C(=O)NCC(=O)N[C@H](C)C(=O)N[C@H](CO)C(=O)N[C@H](Cc1c[nH]c2ccccc12)C(=O)N[C@H](Cc1c[nH]cn1)C(=O)N[C@H](CCCNC(=N)N)C(=O)N1CCC[C@@H]1C(=O)N[C@H](CC(=O)O)C(=O)N[C@H](CCCCN)C(=O)N[C@H](CS)C(=O)N[C@H](CS)C(=O)N[C@H](CC(C)C)C(=O)NCC(=O)N[C@H](Cc1ccc(O)cc1)C(=O)N[C@H](CCC(N)=O)C(=O)N[C@H](CCCCN)C(=O)N[C@H](CCCNC(=N)N)C(=O)N1CCC[C@@H]1C(=O)N[C@H](CC(C)C)C(=O)N1CCC[C@@H]1C(N)=O	LC-MS/MS	rat plasma	5000 ng/mL, 12 h, 25 °C, room temperature before extraction	–	measured concentration	5710 ± 100 ng/mL
CCCCCCCC(=O)NCCCC[C@H](NC(=O)[C@H](Cc1ccccc1)NC(=O)[C@@H](CCCNC(=N)N)NC(=O)[C@@H](N)Cc1ccc(O)cc1)C(N)=O	–	CD-1 mouse, male, lungs	intravenous, 3 mg/kg, 180 min	–	tissue concentration	683 ± 90 ng/g
CS(C)(=O)=Nc1ccc(-c2ccc(-c3nc4cc(O[C@@H]5CO[C@H]6[C@@H]5OC[C@H]6O)[nH]c4cc3F)cc2)cc1	–	female C57BL/6 mouse, plasma	intravenous, 3 mg/kg	–	Vd	2.3 L/kg
CC1N=C(c2ccccc2F)c2cc(Br)ccc2-n2cnc(C(=O)OC3OC(CO)C(O)C(O)C3O)c21 (stereo not drawn)	LC-MS/MS	Swiss Webster mouse, female, urine	intravenous, 250 µg parent drug, 0 to 24 h	–	cumulative excretion	44 ± 3.4%
CC[C@H](C)C(=O)N1CCC(NC(=O)Nc2ccc(OC(F)(F)F)c(F)c2)CC1	–	healthy volunteers	oral, 0.5 mg single dose	–	subjects with UTI TEAE	16.7%
CCCCCCCCCCCCCCC(=O)O.O=C1CCCC2C3CCCN4CCCC(CN12)C34 (stereo not drawn)	thermogravimetry	–	first decomposition step, together with: heating 10 K/min under argon	–	onset decomposition temperature	271 °C
Cc1ccc(/C=C/C(=O)O)cc1-c1cc2c(cc1C)C(C)(C)CCC2(C)C	–	Sprague-Dawley rat, male	oral, 100 mg/kg, 3 h, sesame oil vehicle	–	blood cholesterol	81 ± 14.8 mg/dL
COc1cc(NC(=O)C(=O)c2c(C)n(Cc3ccc(Cl)cc3)c3ccc(C)cc23)ccn1	–	male cynomolgus monkey, plasma	intravenous, 1 mg/kg	–	AUC(0-inf)	2.18 µg·h/mL
O=C(N=P12CN3CN(CN(C3)C1)C2)c1ccccn1.[Cl][Pt][Cl]	NMR	DMSO:water 50:50	–	–	stability time	> 4 days
CC[C@H](C)[C@H](NC(=O)CNC(=O)[C@H](Cc1ccccc1)NC(=O)[C@H](CCCCN)NC(=O)[C@H](CCCCN)NC(=O)[C@H](CCCNC(=N)N)NC(=O)[C@H](CCCNC(=N)N)NC(=O)[C@H](CCCNC(=N)N)NC(=O)[C@H](CCC(N)=O)NC(=O)[C@H](CCCNC(=N)N)NC(=O)[C@H](CCCNC(=N)N)NC(=O)[C@H](CCCCN)NC(=O)[C@H](CCCCN)NC(=O)[C@H](CCCNC(=N)N)NC(=O)CNC(=O)[C@@H](N)Cc1ccc(O)cc1)C(=O)N[C@H](C(=O)N[C@@H](CC(N)=O)C(=O)N[C@@H](CO)C(=O)N[C@@H](CCC(N)=O)C(=O)N[C@@H](CC(C)C)C(=O)N[C@@H](CCCCN)C(=O)N1CCC[C@H]1C(=O)O)[C@@H](C)O	derivative UV-vis spectrophotometry	DMPC:Chol:SM large unilamellar vesicles vs PBS	30 min, pH 7.4, 37 °C, lipid ratio 75:15:10	–	logD	3.7 ± 0.13
Cn1ccc(-c2ccc(Cn3cc(C(=O)N[C@H]4CCCC[C@@H]4O)c4c(F)cc(F)cc43)cn2)n1	–	rat Sprague-Dawley, male, brain, plasma	intravenous, 0.20 to 0.25 mg/kg, 0.25 h, cassette dosing	–	brain/plasma ratio Kp	0.115
CCNc1cc2[o+]c3cc(NCC)c(C)cc3c(-c3ccccc3C(=O)OCCOCC[18F])c2cc1C	–	rat, muscle	15 min	–	tissue uptake	0.1 ± 0.02 %ID/g
C[C@@H](O)[C@H](NC(=O)[C@H](CCC(=O)O)NC(=O)[C@H](Cc1ccccc1)NC(=O)[C@H](Cc1c[nH]c2ccccc12)NC(=O)[C@H](CCCCN)NC(=O)[C@H](CCCCN)NC(=O)[C@H](CCCCN)NC(=S)Nc1ccc2c(c1)C(=O)OC21c2ccc(O)cc2Oc2cc(O)ccc21)C(=O)N[C@@H](Cc1c[nH]c2ccccc12)C(=O)N[C@@H](Cc1ccccc1)C(=O)N[C@H](C(=O)N[C@@H](CCC(=O)O)C(=O)N[C@@H](Cc1c[nH]c2ccccc12)C(=O)N1CCC[C@H]1C(=O)N[C@@H](CCCCN)C(=O)N[C@@H](CCCCN)C(=O)N[C@@H](CCCCN)C(=O)N[C@@H](CCCCN)C(=O)O)[C@@H](C)O	–	gelatin hydrogel 100 mg/mL	56.6 µg loaded, 72 h, no cross-linker, together with: PBS	–	peptide release	36.7 µg
CC[C@@H]1CN2CCc3c([nH]c4cccc(OC)c34)[C@@H]2C[C@@H]1/C(=C\OC)C(=O)OC	–	129S1 mouse, brain	subcutaneous, 140 mg/kg, 15 min	–	brain concentration	16.6 ± 2.7 µM
CC(C)(CCCC/C=C/CCCCCC(C)(C)C(=O)O)C(=O)O	–	beagle dog, plasma	intravenous, 5 mg/kg	–	half-life	26.2 h
C[C@@H]1CC[C@H]2[C@@H](C)CO[C@@H]3O[C@@]4(C)CC[C@@H]1[C@]32OO4	refers to: compound	rat, plasma	2.00 ng/mL spiked, three freeze/thaw cycles	–	measured concentration	2.05 ± 0.08 ng/mL
O=C(c1ccc(F)cc1)C1CCN(C2Cc3c(cccc3OCC[18F])CC2O)CC1 (single isomer, unassigned; (-))	–	rat, brain	1 h	–	tracer uptake	0.548 %ID/g
COC(=O)C[C@](O)(CCCC(C)(C)OC(C)=O)C(=O)O[C@@H]1C(OC)=C[C@]23CCCN2CCc2cc4c(cc2[C@H]13)OCO4	–	CD1 mouse, plasma	oral, 1 mg/kg, 2 h	–	concentration	456 ng/mL
COc1ccc2c3c(c4cc(OC)c(OC)cc4c2c1)CN1CCCC1C3OC(C)=O (stereo not drawn)	–	swine cells	24 (unit not given)	–	CC50	> 100 µM
CN(C)C(CNC(=O)Nc1cc(C(F)(F)F)ccc1N1CCOCC1)c1ccncc1 (stereo not drawn)	–	mouse, serum	intraperitoneal, 180 mg/kg single dose	–	serum globulin	1.5 g/dL
[11CH3]n1c(=O)n(CCCO)c(=O)c2c1nc(Oc1cccc(OC(F)(F)F)c1)n2Cc1ccc(Cl)cc1	ex vivo biodistribution	Sprague Dawley rat, pancreas	60 min post injection	–	tracer uptake	0.94 ± 0.2 %ID/g
CC(C)C[C@H](NC(=O)[C@H](CCCCN)NC(=O)[C@H](CCC(=O)O)NC(=O)[C@H](C)NC(=O)[C@@H](NC(=O)[C@H](CCCCN)NC(=O)[C@H](CC(=O)O)NC(=O)[C@H](Cc1ccc(O)cc1)NC(=O)[C@H](Cc1ccccc1)NC(=O)[C@H](C)NC(=O)[C@H](CCCCN)NC(=O)[C@H](CC(C)C)NC(=O)[C@H](Cc1c[nH]c2ccccc12)NC(=O)[C@@H](N)CC(=O)O)C(C)C)C(=O)N[C@@H](CCCCN)C(=O)N[C@@H](CCC(=O)O)C(=O)N[C@@H](C)C(=O)N[C@@H](Cc1ccccc1)C(=O)N1CCC[C@H]1C(=O)N[C@@H](CC(=O)O)C(=O)N[C@@H](Cc1c[nH]c2ccccc12)C(=O)N[C@@H](C)C(=O)N[C@@H](CCCCN)C(=O)N[C@@H](C)C(=O)N[C@@H](C)C(=O)N[C@@H](Cc1ccc(O)cc1)C(=O)N[C@@H](CC(=O)O)C(=O)N[C@@H](CCCCN)C(=O)N[C@@H](C)C(=O)N[C@@H](C)C(=O)N[C@@H](CCC(=O)O)C(=O)N[C@@H](CCCCN)C(=O)N[C@@H](C)C(=O)N[C@@H](CCCCN)C(=O)N[C@@H](CCC(=O)O)C(=O)N[C@@H](C)C(=O)N[C@@H](C)C(=O)O	–	cynomolgus monkey male, plasma	intravenous infusion, 75 mg/kg every other day, day 27	–	AUC(0-inf)	8630 µg·h/mL
CC[C@@H]1C[C@]1(NC(=O)[C@@H]1C[C@@]2(CN1C(=O)[C@@H](NC(=O)[C@@H](NC(=O)[C@@H]1CCCCN1C(C)C)C1CCCCC1)C(C)(C)C)C(C)(C)C21CCC1)C(=O)NS(=O)(=O)N1CCCC1	refers to: upper respiratory tract infection	human	oral, 50 mg, day 2, together with: ritonavir 100 mg simultaneously	–	subjects with adverse event	0%
COc1ccc(F)c2[nH]c(C(=O)N[C@@H](CC(C)C)C(=O)N[C@@H](C[C@@H]3CCNC3=O)C(=O)c3nc4ccccc4s3)cc12	–	Jcl:ICR mice, female	intravenous, 2.0 mg/kg	–	half-life	~0.5 h
C/C=C/C=C/C/C=C/CCCCCCCc1cccc(O)c1O	–	female Kunming mice, tumour-bearing, lungs	intravenous, 10 mg/kg, 8 h	–	tissue concentration	4350 ± 870 ng/g

A few entries again:
SMILES	test	test system	conditions	scale	endpoint	result
CC(C)(CCCC/C=C/CCCCCC(C)(C)C(=O)O)C(=O)O	–	beagle dog, plasma	intravenous, 5 mg/kg	–	half-life	26.2 h
C[C@@H]1CC[C@H]2[C@@H](C)CO[C@@H]3O[C@@]4(C)CC[C@@H]1[C@]32OO4	refers to: compound	rat, plasma	2.00 ng/mL spiked, three freeze/thaw cycles	–	measured concentration	2.05 ± 0.08 ng/mL
O=C(c1ccc(F)cc1)C1CCN(C2Cc3c(cccc3OCC[18F])CC2O)CC1 (single isomer, unassigned; (-))	–	rat, brain	1 h	–	tracer uptake	0.548 %ID/g
COC(=O)C[C@](O)(CCCC(C)(C)OC(C)=O)C(=O)O[C@@H]1C(OC)=C[C@]23CCCN2CCc2cc4c(cc2[C@H]13)OCO4	–	CD1 mouse, plasma	oral, 1 mg/kg, 2 h	–	concentration	456 ng/mL
